Measurements gathered from unrelated publications.
Lines come from different studies, so protocols differ. Several values in a cell are separate wells, animals, samples, runs or records.
Target: Serine/threonine-protein kinase Chk1 (CHEK1, Homo sapiens, UniProt O14757)

assay | test system | setting | how to read | quantity | result | Structure (SMILES)
cell-free assay, competition with immobilised ligand |  | 0.5 µM |  | remaining binding | 82% | CN1CCN(Cc2ccc(NC(=O)c3cccc(C#Cc4cnc(N)c5ncccc45)c3)cc2C(F)(F)F)CC1
cell-free assay, competition with immobilised ligand |  | 1 µM |  | remaining binding | 100% | Cc1ccc(-c2c(/C=C(\C#N)C(=O)NC(C)C)n(CCCO)c3ncnc(N)c23)cc1
KinomeScan |  | 0.1 µM | relative to: untreated | remaining binding | 71% | CNC1C[S+]2CC[S+]3CC[S+](C1)[Ru-4]321([N]=C=S)[n]2c3ccc(OC)cc3c3c4c(c5cc(F)c[n+]1c5c32)C(=O)NC4=O (centres unmarked)
binding, competition with immobilised ligand |  | 3 µM |  | remaining binding | 93% | COc1c(Cl)cccc1Nc1c(-c2ccncc2C#C[C@@]2(C)CCCN2C(=O)/C=C/CN(C)C)[nH]c2c1C(=O)NCC2
cell-free assay, competition with immobilised ligand |  | 10 µM |  | remaining binding | 100% | C=C1CCCCCCCCCC(CO)C1=O (centres unmarked)
kinase activity, KinaseProfiler |  | 0.03 µM, species human | relative to: control | remaining activity | 86% | COc1ccc(NC(=O)Nc2ccc3c(c2)C(=O)N(C(C)CO)CC(C)C(CN(C)Cc2ccc4c(c2)OCO4)O3)cc1 (centres unmarked)
enzyme activity, Dundee kinase panel |  | 10 µM |  | remaining activity | 79% | Cc1cccc(-c2ccc3nc(NC(=O)C4CCCCC4)nn3c2)c1
inhibitor |  | 1 µM | relative to: control | remaining activity | 97% | COc1cc(Nc2nc(C)cc(-c3cnn4nc(OC)ccc34)n2)cc(C(F)(F)F)c1
KINOMEscan |  | 10 µM |  | remaining binding | 97% | CC(=O)N1c2ccc(-c3ccc(CNC(=O)c4cn5cc(-c6cnc(N)nc6)nc(N6CCOCC6)c5n4)cc3)cc2CC[C@@H]1C
binding, competition with immobilised ligand |  | 1 µM |  | remaining binding | 100% | Nc1ncc2c(n1)-c1c([nH]c3ccc(C4=CCOCC4)cc13)CCC2
enzyme activity, inhibitor |  | 1 µM |  | inhibition | 76% | Cc1nc2c(F)cc(-c3nc(Nc4ccc(CNC(=O)CCCCCCC(=O)NO)cc4)ncc3F)cc2n1C(C)C
binding, competition with immobilised ligand |  | 10 µM |  | remaining binding | 98% | CNS(=O)(=O)Nc1nccc(Cc2c(C)c3ccc(Oc4ncccc4F)cc3oc2=O)c1F
enzyme activity, inhibitor |  | 0.1 µM |  | inhibition | 17% | C=CC(=O)Nc1cccc(-c2cnc3[nH]cc(C(=O)NC(C)(C)C)c3n2)c1
kinobead competition pulldown | HEK293/HCT116 lysate mixture | 10 µM, 1 h, 4 °C | lower = stronger competition | log2 LFQ intensity | 24.2 and 24.3 | N[C@H]1CC[C@H](Nc2nccc(-c3cccnc3Oc3ccc(NC(=O)NC4CC4)c4ccccc34)n2)CC1
binding, competition with immobilised ligand |  | 0.2 µM |  | inhibition | 10.4% | COc1ccc(O)cc1-c1c[nH]c2ncc(-c3cncc(C(=O)N(C)C)c3)cc12
enzyme activity, inhibitor |  | 1 µM |  | activity vs control | 112% | CNC(=O)C[C@H](Cc1ccc(C#N)cc1)NC(=O)c1cc(-c2ccc(CN[C@H](C)c3ccc(C)cc3)o2)ccc1Cl
enzyme activity, inhibitor |  | 10 µM |  | inhibition | 4% | NC(=O)C[C@H]1CCc2sc3ncnc(O[C@H]4CC[C@H](N5CCOCC5)CC4)c3c21
enzyme activity, Dundee kinase panel |  | 10 µM |  | remaining activity | 76% | Cc1cccc(-c2ccc3nc(NC(=O)C4CCCO4)nn3c2)c1 (centres unmarked)
enzyme activity, inhibitor |  | 1 µM |  | inhibition | 10% | CN1CC[C@@H](COc2cnc(C#N)cc2-c2ccn3nc(NC(=O)C4CC4)cc3c2)C1
 |  | concentration not given |  | percent of control | 96% | Cc1cnc2nc1Nc1cccc(c1)COC/C=C/COCc1cc(ccc1OCCN1CCOCC1)N2
kinase activity, inhibitor, ProQinase kinase profiling |  | 25 µM | relative to: control | remaining activity | 102% and 115% | COCC12C(=O)NC3C4(C(OC)CC1O)C1CC5(O)C(OC)C(O)C(OC(C)=O)(C1C5OC(=O)c1ccccc1)C3(O)C(OC)C24 (centres unmarked)
enzyme activity, inhibitor, FRET |  | 1 µM |  | inhibition | -2% | C[C@H]1CN(C(=O)c2cn(-c3ccnc(N)n3)c3cc(C#CC4(O)CCCCC4)ccc23)CCN1
kinase activity, kinome panel screening |  | 1 µM |  | inhibition | 2% | Cc1cccc(O[C@H]2CCC[C@@H](C(C)CNCc3ccncc3)C2)c1 (relative stereo)

A few entries again:
assay | test system | setting | how to read | quantity | result | Structure (SMILES)
inhibitor |  | 1 µM | relative to: control | remaining activity | 97% | COc1cc(Nc2nc(C)cc(-c3cnn4nc(OC)ccc34)n2)cc(C(F)(F)F)c1
KINOMEscan |  | 10 µM |  | remaining binding | 97% | CC(=O)N1c2ccc(-c3ccc(CNC(=O)c4cn5cc(-c6cnc(N)nc6)nc(N6CCOCC6)c5n4)cc3)cc2CC[C@@H]1C
